# Experimental data from different studies.
# Protocols differ between the studies behind these lines.
# Organism: Bacillus subtilis
Structure (SMILES),assay,system,setting,MIC
O=C(c1ccccc1O)c1[nH]c(Cl)c(Cl)c1-n1c(C(=O)c2ccccc2O)cc(Cl)c1Cl,microbial growth,ATCC6051,,0.25 µM
CC(=O)N[C@@H](CC(C)C)C(=O)N[C@H]1CSSC[C@@H](C(=O)N2CCC[C@H]2C(N)=O)NC(=O)[C@H](CCCCN)NC(=O)[C@H](C(C)C)NC(=O)[C@H](CCCCN)NC(=O)CNC(=O)[C@H](CC(C)C)NC(=O)[C@H](Cc2ccccc2)NC(=O)[C@H](CCCCN)NC(=O)[C@H](CC(C)C)NC(=O)[C@H](CCC(=O)O)NC(=O)[C@H](Cc2ccccc2)NC(=O)[C@H](CCCNC(=N)N)NC(=O)[C@H](CCCCN)NC(=O)[C@H](CC(C)C)NC(=O)[C@H](CC(=O)O)NC(=O)[C@@H]2CCCN2C(=O)[C@H](CCCCN)NC(=O)[C@H](C(C)C)NC(=O)[C@H](CCCCN)NC(=O)[C@H](CCCCN)NC(=O)[C@H](CCCCN)NC1=O,broth dilution,CGMCC strain,24 h,< 1.25 µM
CN[C@H](CC(C)C)C(=O)N[C@H]1C(=O)N[C@@H](CC(N)=O)C(=O)N[C@H]2C(=O)N[C@H]3C(=O)N[C@H](C(=O)N[C@H](C(=O)NCc4cn(CC(=O)N[C@H](C(=O)N[C@@H](CCN)C(=O)N[C@H]5CCNC(=O)[C@H]([C@@H](C)O)NC(=O)[C@H](CCN)NC(=O)[C@H](CCN)NC(=O)[C@H](CC(C)C)NC(=O)[C@@H](CC(C)C)NC(=O)[C@H](CCN)NC5=O)[C@@H](C)O)nn4)c4cc(O)cc(O)c4-c4cc3ccc4O)[C@H](O)c3ccc(c(Cl)c3)Oc3cc2cc(c3O[C@@H]2O[C@H](CO)[C@@H](O)[C@H](O)[C@H]2O[C@H]2C[C@](C)(N)[C@H](O)[C@H](C)O2)Oc2ccc(cc2Cl)[C@H]1O,broth microdilution,"168, cation-adjusted Mueller-Hinton broth",,0.2 µM
CC[C@H](C)[C@H](N)C(=O)N[C@@H](CCCNC(=N)N)C(=O)N[C@H](C(=O)N[C@@H](Cc1c[nH]c2ccccc12)C(=O)N[C@@H](Cc1ccccc1)C(=O)N[C@H](C(=O)N[C@@H](CCCCN)C(=O)N[C@H](C(=O)N[C@@H](CCCNC(=N)N)C(=O)N[C@@H](CCCCN)C(=O)N[C@@H](CCSC)C(=O)N[C@@H](CCCCN)C(=O)N[C@@H](C)C(=O)N[C@H](C(=O)N[C@@H](Cc1ccc(O)cc1)C(=O)N[C@@H](Cc1c[nH]cn1)C(N)=O)[C@@H](C)CC)C(C)C)[C@@H](C)CC)C(C)C,broth dilution,KCTC 3068,,50 µM
CC[C@H](C)[C@H](NC(=O)[C@@H](CCC(=O)O)NC(=O)[C@H](CC(C)C)NC(=O)c1cccc(C(=O)O)n1)C(=O)N[C@H]1CCCCNC(=O)[C@H](CC(N)=O)NC(=O)[C@@H](CC(=O)O)NC(=O)[C@H](Cc2c[nH]cn2)NC(=O)[C@@H](Cc2ccccc2)NC(=O)[C@H]([C@@H](C)CC)NC(=O)[C@@H](CCCN)NC1=O,,168,"18 h, 37 °C, 0.3 mM ZnSO4 LB",> 64 µg/mL
c1ccc(CCNC2CCCc3c2[nH]c2ccc(C4CCCCC4)cc32)cc1 (centres unmarked),broth microdilution,168,,2 µg/mL
CN[C@H](CC(C)C)C(=O)N[C@H]1C(=O)N[C@@H](CC(N)=O)C(=O)N[C@H]2C(=O)N[C@H]3C(=O)N[C@H](C(=O)N[C@H](C(=O)NCC(N)=O)c4cc(O)cc(O)c4-c4cc3ccc4O)[C@H](O)c3ccc(c(Cl)c3)Oc3cc2cc(c3O[C@@H]2O[C@H](CO)[C@@H](O)[C@H](O)[C@H]2O[C@H]2C[C@](C)(NCc3ccc(OCc4cn(CC(=O)N[C@H](C(=O)N[C@@H](CCN)C(=O)N[C@H]5CCNC(=O)[C@H]([C@@H](C)O)NC(=O)[C@H](CCN)NC(=O)[C@H](CCN)NC(=O)[C@H](CC(C)C)NC(=O)[C@@H](CC(C)C)NC(=O)[C@H](CCN)NC5=O)[C@@H](C)O)nn4)c(OC)c3)[C@H](O)[C@H](C)O2)Oc2ccc(cc2Cl)[C@H]1O,broth microdilution,"168, cation-adjusted Mueller-Hinton broth",,≤ 0.003 µM
CC[C@H](C)[C@@H]1NC(=O)[C@H](C(C)C)NC(=O)[C@H](C(C)C)NC(=O)[C@H](CC(C)C)NC(=O)C[C@@H](C(=O)N[C@@H](Cc2c[nH]c3ccccc23)C(=O)N[C@@H](CC(N)=O)C(=O)N[C@@H](C)C(=O)N2CCC[C@H]2C(=O)NCC(=O)N[C@@H](Cc2c[nH]c3ccccc23)C(=O)N[C@@H](Cc2ccccc2)C(=O)O)NC(=O)[C@H](C)NC(=O)[C@H](CCC(N)=O)NC(=O)[C@H](C(C)C)NC1=O,,ATCC 6051,,> 32 µg/mL

# A few entries again:
Structure (SMILES),assay,system,setting,MIC
CC[C@H](C)[C@@H]1NC(=O)[C@H](C(C)C)NC(=O)[C@H](C(C)C)NC(=O)[C@H](CC(C)C)NC(=O)C[C@@H](C(=O)N[C@@H](Cc2c[nH]c3ccccc23)C(=O)N[C@@H](CC(N)=O)C(=O)N[C@@H](C)C(=O)N2CCC[C@H]2C(=O)NCC(=O)N[C@@H](Cc2c[nH]c3ccccc23)C(=O)N[C@@H](Cc2ccccc2)C(=O)O)NC(=O)[C@H](C)NC(=O)[C@H](CCC(N)=O)NC(=O)[C@H](C(C)C)NC1=O,,ATCC 6051,,> 32 µg/mL
